Experimental data gathered from unrelated publications.
A part holds a random share of what one study measured.

Sample 1 — technique: RNA Bind-n-Seq; molecule type: RNA; matrix: in vitro; concentration: 200 nM; setting: whole 134-nt RNA, ends assumed; together with: 150 mM LiCl; reference: input library; reading: higher = stronger binding; each molecule: 7-deaza-guanosine replaces G
Target: Fragile X messenger ribonucleoprotein 1, C-terminal low-complexity region (Fmr1, Mus musculus, UniProt P35922)
`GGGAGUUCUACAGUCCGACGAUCACCAUGCAGGUGGGCAUCUUAGGGAAGUGGGGCAAGGGGGGGAUAGGGAGGGGGGUAACACUUUGGGAACAGGUGGUCCCAGGUCGUUUCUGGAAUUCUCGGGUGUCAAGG` gave a log2 enrichment of 1.37.
`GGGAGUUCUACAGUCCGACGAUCACCAUGCAGGUGGGCAUCUUUGGGAAGUGGGGCAAGGGGGGGAUAGGGAGGGGGGUAACACUUUGGGAACAAGUGGUCCCAGGUCGUUUCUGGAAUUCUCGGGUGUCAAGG` has a log2 enrichment of 1.66.
`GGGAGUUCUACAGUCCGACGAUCCAAGUCCUGUGCUACACAUCGUAUGUACCGAAUCGGUUUUUGGAAAAAGGUUUGGAAAGUAUUAUGUUACGCCGUUCGGAUCUGCACUUCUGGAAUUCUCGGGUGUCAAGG` has a log2 enrichment of -3.06.
With `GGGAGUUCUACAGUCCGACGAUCCUCAAGUCCUGUGCUACACAUCGUAUGUACCGAAUCGGUGGUGGAAAAAAAGGAAAGUAUUAUGUUACGCCGUUCGGAUCUGCACUUCCAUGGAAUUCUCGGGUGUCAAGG` the log2 enrichment was 0.383.
`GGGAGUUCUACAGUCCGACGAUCACCAUGCAGGUGGGCAUCUUUGGGAAGUGGGGCAAGGGGUGGAUAGGGAGGGGGGUAACACUUUGGGAACAGGUGGUCCCAGGUCGUUUCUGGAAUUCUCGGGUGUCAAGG` has a log2 enrichment of 1.01.
For `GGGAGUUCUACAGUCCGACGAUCCCUGUGCUACACAUCGUAUGUACCGAAUCAAACCCCCCCAAACCCCCAAACCCCCCCAAAAAAGUAUUAUGUUACGCCGUUCGGAUCUGCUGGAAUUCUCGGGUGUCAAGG`, the log2 enrichment was 1.82.
With `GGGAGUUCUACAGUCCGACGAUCGAUGAUUACUAUGGUUAUGAUUAUCACGACUAUCGUGGAGGCUAUGAAGAUCCCUACUACGGCUAUGAUGAUGGCUAUGCAGUAAGAGGAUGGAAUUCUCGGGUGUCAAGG` the log2 enrichment was -2.13.
`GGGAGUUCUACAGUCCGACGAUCCACAGAAAACACGCACCCACACAGACACAGAGGGAAGGGGUUGGGAUGGGGACAGGGUGCACAGCAGGGCGGGGUAGGACCCCAGCCCCUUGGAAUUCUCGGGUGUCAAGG` has a log2 enrichment of 0.497.

Sample 2 — technique: protein binding microarray; molecule type: double-stranded DNA, one strand shown; matrix: in vitro; concentration: not given; reference: not given; reading: higher = stronger binding
Target: Histone acetyltransferase KAT6A, winged helix 2, GST fusion (KAT6A, Homo sapiens, UniProt Q92794, residues 85-181)
Setting: 8-mer, flanks averaged, mean of 2 arrays, mostly near background
Residues (chain): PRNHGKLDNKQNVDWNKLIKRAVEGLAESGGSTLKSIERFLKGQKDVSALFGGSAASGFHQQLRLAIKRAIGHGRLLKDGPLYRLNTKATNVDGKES
`ATGCACGA` gave an E-score of -0.0599.
`CGTACACA` gave an E-score of 0.0232.
`GGCACACA` has an E-score of 0.0942.
With `GCATTGGA` the E-score was -0.221.
`AACTTCTA` gave an E-score of -0.043.
`CCTCCGGA` gave an E-score of 0.133.
With `GAAGGAAC` the E-score was 0.0412.
`AGCGCCGC` gave an E-score of 0.0375.
The E-score of `CATTTCAG` is reported as 0.109.
With `ACGTTTCA` the E-score was -0.0469.
`AATCGGTC` has an E-score of -0.00542.
`ACAGAAAA` gave an E-score of 0.0929.
The E-score of `GACATAGA` is reported as -0.0988.
`CCCTCGCA` has an E-score of 0.0107.
The E-score of `ACTAGGCG` is reported as 0.172.
For `GCAAAATA`, the E-score was 0.124.
For `AATCGAGT`, the E-score was -0.168.
`GGGGACGA` gave an E-score of 0.133.
For `CCCTGACA`, the E-score was -0.074.
`ATGTGCAG` has an E-score of -0.0896.
`CTTGCCTA` gave an E-score of -0.0604.

Sample 3 — technique: RNA Bind-n-Seq; molecule type: RNA; matrix: in vitro; concentration: not given; reference: input RNA pool; reading: higher = stronger binding
Target: RING finger protein unkempt homolog, zinc fingers 1-6, GST-SBP tag (UNK, Homo sapiens, UniProt Q9C0B0, residues 30-357)
Setting: RNA with constant flanks, human-mouse chimeric sites, ends assumed
Residues (chain): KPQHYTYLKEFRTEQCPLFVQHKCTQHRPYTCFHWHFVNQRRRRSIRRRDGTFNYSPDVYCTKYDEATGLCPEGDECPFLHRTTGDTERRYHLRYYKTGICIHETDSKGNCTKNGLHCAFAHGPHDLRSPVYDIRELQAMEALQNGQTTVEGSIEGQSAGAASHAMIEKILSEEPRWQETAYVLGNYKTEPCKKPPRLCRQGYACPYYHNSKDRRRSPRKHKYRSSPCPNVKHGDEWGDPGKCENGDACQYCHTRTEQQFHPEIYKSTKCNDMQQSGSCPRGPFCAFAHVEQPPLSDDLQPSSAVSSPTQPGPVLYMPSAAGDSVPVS
With `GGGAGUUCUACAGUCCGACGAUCAUAAAGGCUAUGUUGAGUGGCCCAGGUCAGUUUGCUGAGAAUGAAACCAAUGAGGUCAAUUUUAGAGAGAUCCCCUCACAUGUGCUAUCAAAAGUGUGCAUGUAUUUUACCUACAAGGUCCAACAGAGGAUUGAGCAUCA` the bound/input enrichment was 0.14 ratio.
For `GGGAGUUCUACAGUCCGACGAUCGAGUCGAGCAAACUUGAAACUACAGAAUAUCUUGCAGCCUCAGUGUUCACUUGCUUGGCGAUAGCAUUGGGGUUUUAUAGGUUCUGGAAGGAGAACUGACGAUGAUGUCCUGCUGUGUGCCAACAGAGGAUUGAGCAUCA`, the bound/input enrichment was 0.0943 ratio.
The bound/input enrichment of `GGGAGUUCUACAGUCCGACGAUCUCUUAACUUAUUCAUUUAACUUAUUUUUAGCACUUAGUAAAUAUUGUUAGUCUUAGACAAUAGCUCACAUUUUUUGAGAAGCAUGCCCUCCCUAUCCAUUUGUCUUAUAACAUGACCCAGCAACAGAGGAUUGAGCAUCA` is reported as 263 ratio.
`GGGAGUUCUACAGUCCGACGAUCAAUUUCCGCAACUGUUUUUUAGACAUUCACAUCAGACUUACAGAGCAUUGGGCCUCUUUCUAGGUUUGUGUUAUUUCUCAGCUAUGGAUAUGAUCAAAUGAGAACACUGCUUAACUAAUGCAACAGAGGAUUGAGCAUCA` gave a bound/input enrichment of 0.296 ratio.
With `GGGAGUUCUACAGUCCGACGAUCCCCUCCCCGGGCCACCCGCCCGCCCAAGCUCCCCGCCGAGAUCCAGGUUUCUUCUGUUUUCAUAGCAAAUAAGAAAAAUGUUCUACGCACAUUUUGUCCUCAGUAAACGAGGGCCUCUGGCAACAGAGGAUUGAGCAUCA` the bound/input enrichment was 0.843 ratio.
For `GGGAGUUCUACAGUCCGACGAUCGGCCUGGGACCGUCCUGGGCUAGUACAAAUAGCGGCAUGGAGGCUCAGAGAGGAAAGUUUGUUAGUGGAGGCAGUGGUAGAGGCCGUCAUGUACGGUCCUUUACUCGUAAAAAUCCUUCUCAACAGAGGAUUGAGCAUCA`, the bound/input enrichment was 0.244 ratio.
The bound/input enrichment of `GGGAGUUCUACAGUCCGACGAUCGGAAGCACAAUGAUGGAGAUUGAUGGUGACAAAGGCAAGCAGGGCGGGCCCACCUACUACAUAGACACCAAUGCCCUCCGCGUGCCCAGGGAGAACAUGGAGGCCAUUUCACCUCUAAAGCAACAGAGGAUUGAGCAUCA` is reported as 0.232 ratio.
With `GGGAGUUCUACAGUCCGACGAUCGUGACUGGUGUUAAGAUUUACCCUCAGCAAAGAAGUGUAGCAGUGACCAUAAUUCCAUCUGUGGUGAGUGCCAGUCAGAUUGUGGAGCUGGUCCCAGACCUCAGUUUAGACAUGGGAACUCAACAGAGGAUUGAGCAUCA` the bound/input enrichment was 0.351 ratio.
The bound/input enrichment of `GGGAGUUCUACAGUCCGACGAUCCUCAGAGAUGUGGCAUAUCAAUAUGUGAAAAAGGGGGCUCGUAUAUUUGUGGAAGGGAAAGUGGACUAUGGUGAAUACAUGGAUAAAAACAAUGUGAGGCGGCAAGCAACAACAAUCAUACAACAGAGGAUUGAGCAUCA` is reported as 0.385 ratio.
`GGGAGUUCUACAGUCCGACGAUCAAAGAACCUCUCUCUGAUGAAGAUGAGGACAGUGAUGAUGAUGUUGAACCCAUUUCUGAAUUUCGAUUUGUGCCCAGUGAUAAGUCAGCAUUGGAGGCGAUGUUCACAGCAAUGUGUGAGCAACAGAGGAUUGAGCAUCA` has a bound/input enrichment of 0.234 ratio.
`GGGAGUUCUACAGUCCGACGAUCCUGGCACUCUAUCAGAUAUAUUAAUUUUUUAAUGUAGAUGUAAUUUUAAAAAUGAAUGGCUACUUUACGUGAUAGAUUAGGGUUUUACUAUAUAUGUGUACAUAUGUAUAUGUAUUUAUACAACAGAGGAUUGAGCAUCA` gave a bound/input enrichment of 5.78 ratio.

Sample 4 — technique: RNA Bind-n-Seq; molecule type: RNA; matrix: in vitro; concentration: 365 nM; reference: no-protein control; reading: higher = stronger binding
Target: RNA binding protein fox-1 homolog 2, RRM domain, GST-SBP tag (RBFOX2, Homo sapiens, UniProt O43251-10, residues 100-194)
Setting: natural RNA segment, single round, ends assumed
Target sequence (chain): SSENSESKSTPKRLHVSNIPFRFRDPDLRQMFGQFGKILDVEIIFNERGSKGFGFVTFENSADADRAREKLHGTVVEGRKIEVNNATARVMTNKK
For `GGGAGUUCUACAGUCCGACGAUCAAUGAAAUAGUAGUUAAGAGGUGUUUUCCCACUGUGUUUAAAGAGAACACUAGUAAUUCUGGUUUUUCUUUCUAACUGCUUUACUGUUUCAAGGGUAUUCUUUUAAAACUUGGAAUUCUCGGGUGCCAA`, “RBNS enrichment (R)” read 0.279.
`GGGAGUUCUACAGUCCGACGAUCAUAAAGCAUUGUCUGUUCCAGAGUGGCCUUUGAAGAGACUGAAUAAUCACUUCGUCAUAAUGUUAAGGGAGAUGCUAGUGUGUGGCAGCCAUGAAAAGUUACACAUACACUGGAAUUCUCGGGUGCCAA`: “RBNS enrichment (R)” 0.422.
`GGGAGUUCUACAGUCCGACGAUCAAAAGAGGUAAGACUGAGACUAAAGGUGUUAUCUUCUGGUGUGCUCCUGGAAGUGUCUACCCUACAUUUGUGUCAGCUCAGGGUUGCAGUGUUGCCCAGAUGCAUUUUACUGGAAUUCUCGGGUGCCAA` — result for “RBNS enrichment (R)”: 0.814.
For `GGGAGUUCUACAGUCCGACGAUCAGACAAGACCGGAUCUUGUCAUCUUACCUUUUGCUUUACAAAAAAGGCCUGUUGAAGUCAAUGCUGUCUUGCCCCUUGCUGUUUCAGCAGGUUAGACUUUGGUCUUCACUUGGAAUUCUCGGGUGCCAA`, “RBNS enrichment (R)” read 0.501.
`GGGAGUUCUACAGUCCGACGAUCGGUCUGAGGAUGCAUUCGAGAUGGCAGAUUCCCACUGCCGCUGCCCGCUCAGCCCAGCUGUUGGGAACAGCAUGGAGGCAGAUGUGGGGCUGAGCUGGGGAAUCAGGGUAUGGAAUUCUCGGGUGCCAA`: “RBNS enrichment (R)” 8.99.
`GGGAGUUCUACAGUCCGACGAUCUUCACAUGCUCAAUUGAUAUUUUUUGCUGCUUCCUCGGCCCAGGGAGAAAGCAUGUCAGGACAGAGCUGUUGGAUUGGCUUUGAUAGAGGAAUGGGGAUGAUGUAAGUUUUGGAAUUCUCGGGUGCCAA`: “RBNS enrichment (R)” 1.12.
For `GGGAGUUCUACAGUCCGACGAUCCUUGGGGUCUGAACUAUGGAGGCUUGGUUGGGGAAUGUGGAUGCCCUUAGAUCCUUUUCUGGGUGAUAAUAGGGAUGUGGGCCUUUUGUGUUUAAGGAGAGUUUCUAAUAUGGAAUUCUCGGGUGCCAA`, “RBNS enrichment (R)” read 1.48.
`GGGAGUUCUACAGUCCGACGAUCAGCCCGUGCUCUUGAGAGAGAGCGAGCUUCGGGACCCUAACUGUAUGGACCAUCUUCAAACUGCUGGAUCCCCUGUAUAUGUUGAAUGAUGCCUGGUGGUCUUACAGCAUUGGAAUUCUCGGGUGCCAA`: “RBNS enrichment (R)” 4.3.
`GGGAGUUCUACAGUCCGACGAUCGUCUCUGUUGUGCUUACUGCAGGCUGUAAUGGCACUUUUGCUUGUUUCACUUGUUCCCUCUGAGGCUGAAUGCUCCAAGAGAGUGGGAACUGUGCUUCUUACUUACUGAUUGGAAUUCUCGGGUGCCAA` — result for “RBNS enrichment (R)”: 2.6.

Excerpt of the above (sample 2):
For `AATCGAGT`, the E-score was -0.168.
`AACTTCTA` gave an E-score of -0.043.
`GGGGACGA` gave an E-score of 0.133.
The E-score of `GACATAGA` is reported as -0.0988.
`CGTACACA` gave an E-score of 0.0232.
`ATGCACGA` gave an E-score of -0.0599.
`GGCACACA` has an E-score of 0.0942.
